Published values collected from several papers.
Lines come from different studies, so protocols differ. pEC50, pIC50, pKi: −log10 of the molar value.
ADRA2C: Alpha-2C adrenergic receptor (ADRA2C, Homo sapiens, UniProt P18825)
Chain of UniProt P18825 (whole entry, looked up): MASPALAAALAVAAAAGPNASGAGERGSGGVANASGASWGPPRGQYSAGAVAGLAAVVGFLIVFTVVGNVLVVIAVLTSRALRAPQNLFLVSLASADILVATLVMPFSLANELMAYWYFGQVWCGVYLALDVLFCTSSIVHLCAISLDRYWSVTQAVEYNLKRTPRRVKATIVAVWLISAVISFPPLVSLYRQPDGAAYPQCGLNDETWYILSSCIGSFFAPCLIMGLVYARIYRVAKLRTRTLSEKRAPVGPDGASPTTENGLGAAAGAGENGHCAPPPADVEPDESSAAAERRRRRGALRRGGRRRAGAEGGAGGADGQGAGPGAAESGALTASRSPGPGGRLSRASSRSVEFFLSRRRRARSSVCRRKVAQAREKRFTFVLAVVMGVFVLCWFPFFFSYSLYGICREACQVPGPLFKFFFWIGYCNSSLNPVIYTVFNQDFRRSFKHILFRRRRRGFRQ
ADRA2B: Alpha-2B adrenergic receptor (ADRA2B, Homo sapiens, UniProt P18089)
Chain of UniProt P18089 (whole entry, looked up): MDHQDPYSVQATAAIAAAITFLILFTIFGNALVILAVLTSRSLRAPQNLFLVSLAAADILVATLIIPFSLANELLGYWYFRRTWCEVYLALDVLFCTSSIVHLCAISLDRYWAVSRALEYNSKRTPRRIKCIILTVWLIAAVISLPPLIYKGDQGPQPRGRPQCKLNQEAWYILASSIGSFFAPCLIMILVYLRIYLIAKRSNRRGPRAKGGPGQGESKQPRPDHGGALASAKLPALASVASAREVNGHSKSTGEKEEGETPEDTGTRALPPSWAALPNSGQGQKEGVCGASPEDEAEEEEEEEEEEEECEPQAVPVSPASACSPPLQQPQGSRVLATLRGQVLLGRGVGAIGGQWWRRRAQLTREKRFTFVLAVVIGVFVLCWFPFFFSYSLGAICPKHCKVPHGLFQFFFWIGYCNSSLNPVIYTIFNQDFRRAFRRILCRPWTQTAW
DRD3: D(3) dopamine receptor (DRD3, Homo sapiens, UniProt P35462)
Chain of UniProt P35462 (whole entry, looked up): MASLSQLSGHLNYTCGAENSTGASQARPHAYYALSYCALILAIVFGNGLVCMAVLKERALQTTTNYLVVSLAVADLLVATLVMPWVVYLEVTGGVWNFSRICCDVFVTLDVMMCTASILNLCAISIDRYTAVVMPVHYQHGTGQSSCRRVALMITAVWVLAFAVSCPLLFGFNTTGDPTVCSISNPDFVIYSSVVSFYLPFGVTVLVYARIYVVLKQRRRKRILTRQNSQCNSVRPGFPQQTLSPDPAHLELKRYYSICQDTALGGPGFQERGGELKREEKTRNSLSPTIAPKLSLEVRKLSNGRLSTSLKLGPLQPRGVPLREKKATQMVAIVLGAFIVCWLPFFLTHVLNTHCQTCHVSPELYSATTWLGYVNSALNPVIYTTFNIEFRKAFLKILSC
HDAC6: Protein deacetylase HDAC6 (HDAC6, Homo sapiens, UniProt Q9UBN7)
Chain of UniProt Q9UBN7 (whole entry, looked up): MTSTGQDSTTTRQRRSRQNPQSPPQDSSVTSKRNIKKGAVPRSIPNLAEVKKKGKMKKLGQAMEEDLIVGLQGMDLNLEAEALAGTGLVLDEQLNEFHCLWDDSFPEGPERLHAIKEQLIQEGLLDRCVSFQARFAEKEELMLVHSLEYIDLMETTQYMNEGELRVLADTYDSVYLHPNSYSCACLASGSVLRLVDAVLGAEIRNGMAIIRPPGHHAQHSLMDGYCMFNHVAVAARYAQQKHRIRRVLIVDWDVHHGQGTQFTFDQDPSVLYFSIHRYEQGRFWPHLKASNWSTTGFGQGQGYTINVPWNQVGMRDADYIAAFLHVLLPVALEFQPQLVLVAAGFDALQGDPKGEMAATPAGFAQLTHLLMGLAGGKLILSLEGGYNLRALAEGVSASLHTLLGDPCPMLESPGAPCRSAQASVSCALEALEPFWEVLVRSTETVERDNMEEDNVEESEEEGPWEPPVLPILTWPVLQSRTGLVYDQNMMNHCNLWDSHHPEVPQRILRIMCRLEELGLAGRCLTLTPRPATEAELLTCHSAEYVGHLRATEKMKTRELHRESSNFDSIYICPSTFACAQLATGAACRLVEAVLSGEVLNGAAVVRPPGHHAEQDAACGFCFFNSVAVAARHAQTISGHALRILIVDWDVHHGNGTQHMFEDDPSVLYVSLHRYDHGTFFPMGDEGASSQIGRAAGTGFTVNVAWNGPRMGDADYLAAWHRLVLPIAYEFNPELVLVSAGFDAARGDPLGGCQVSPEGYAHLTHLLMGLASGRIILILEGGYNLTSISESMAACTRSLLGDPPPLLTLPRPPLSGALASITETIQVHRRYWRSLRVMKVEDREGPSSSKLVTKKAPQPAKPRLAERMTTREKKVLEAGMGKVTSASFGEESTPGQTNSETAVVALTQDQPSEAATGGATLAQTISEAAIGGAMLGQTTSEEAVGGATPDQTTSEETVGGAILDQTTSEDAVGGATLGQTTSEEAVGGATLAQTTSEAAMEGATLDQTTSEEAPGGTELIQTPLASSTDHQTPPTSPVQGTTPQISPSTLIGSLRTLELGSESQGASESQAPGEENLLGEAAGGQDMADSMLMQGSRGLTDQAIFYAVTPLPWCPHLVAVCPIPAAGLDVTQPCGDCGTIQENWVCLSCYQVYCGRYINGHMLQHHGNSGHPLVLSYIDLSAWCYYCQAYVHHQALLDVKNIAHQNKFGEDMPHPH
Chain of UniProt P0DMS8 (whole entry, unmodified, looked up): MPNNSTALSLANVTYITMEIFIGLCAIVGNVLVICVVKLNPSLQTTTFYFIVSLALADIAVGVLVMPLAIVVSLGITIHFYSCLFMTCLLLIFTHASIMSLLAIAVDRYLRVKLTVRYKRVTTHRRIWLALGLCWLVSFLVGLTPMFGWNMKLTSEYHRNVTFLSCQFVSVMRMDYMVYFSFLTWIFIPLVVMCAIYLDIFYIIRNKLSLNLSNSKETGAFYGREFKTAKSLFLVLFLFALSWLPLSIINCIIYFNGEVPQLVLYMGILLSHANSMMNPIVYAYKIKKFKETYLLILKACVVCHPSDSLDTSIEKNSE
Chain of UniProt Q00532 (whole entry, looked up): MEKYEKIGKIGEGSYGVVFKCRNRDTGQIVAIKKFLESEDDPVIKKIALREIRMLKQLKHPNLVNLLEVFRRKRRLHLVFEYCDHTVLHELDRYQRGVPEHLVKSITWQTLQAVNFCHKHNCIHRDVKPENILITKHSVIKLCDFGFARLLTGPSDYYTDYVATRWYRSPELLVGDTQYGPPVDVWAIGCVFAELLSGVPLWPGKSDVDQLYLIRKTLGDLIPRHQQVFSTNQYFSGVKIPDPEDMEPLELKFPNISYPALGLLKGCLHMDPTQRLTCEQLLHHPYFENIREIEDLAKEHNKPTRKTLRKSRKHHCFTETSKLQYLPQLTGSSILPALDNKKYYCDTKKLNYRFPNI
Chain of UniProt P29317 (whole entry, looked up): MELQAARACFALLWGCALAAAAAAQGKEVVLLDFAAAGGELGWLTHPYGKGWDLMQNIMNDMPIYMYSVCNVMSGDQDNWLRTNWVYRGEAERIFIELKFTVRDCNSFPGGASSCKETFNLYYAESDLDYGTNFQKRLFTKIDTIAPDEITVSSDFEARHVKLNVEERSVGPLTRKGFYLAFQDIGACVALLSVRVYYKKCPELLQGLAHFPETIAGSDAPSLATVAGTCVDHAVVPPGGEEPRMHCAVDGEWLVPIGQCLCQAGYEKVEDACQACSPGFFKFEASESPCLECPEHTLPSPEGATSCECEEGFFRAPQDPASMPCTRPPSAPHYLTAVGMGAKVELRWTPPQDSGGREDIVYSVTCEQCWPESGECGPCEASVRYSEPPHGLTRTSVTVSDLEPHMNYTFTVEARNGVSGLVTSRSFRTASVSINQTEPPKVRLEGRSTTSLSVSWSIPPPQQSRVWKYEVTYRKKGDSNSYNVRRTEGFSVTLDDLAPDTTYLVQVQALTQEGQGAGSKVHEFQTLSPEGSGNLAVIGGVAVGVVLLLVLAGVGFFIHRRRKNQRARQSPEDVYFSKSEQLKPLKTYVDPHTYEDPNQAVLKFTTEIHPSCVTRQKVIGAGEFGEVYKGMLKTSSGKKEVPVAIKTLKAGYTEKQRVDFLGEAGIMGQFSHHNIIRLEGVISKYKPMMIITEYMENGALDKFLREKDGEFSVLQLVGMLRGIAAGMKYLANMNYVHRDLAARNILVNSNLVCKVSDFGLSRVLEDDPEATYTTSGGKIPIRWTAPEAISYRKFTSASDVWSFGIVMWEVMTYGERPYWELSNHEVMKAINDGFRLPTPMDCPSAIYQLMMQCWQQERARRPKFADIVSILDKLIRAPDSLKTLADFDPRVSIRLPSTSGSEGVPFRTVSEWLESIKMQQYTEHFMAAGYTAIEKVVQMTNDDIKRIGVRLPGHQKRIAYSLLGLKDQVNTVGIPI
Chain of UniProt Q13547 (whole entry, looked up): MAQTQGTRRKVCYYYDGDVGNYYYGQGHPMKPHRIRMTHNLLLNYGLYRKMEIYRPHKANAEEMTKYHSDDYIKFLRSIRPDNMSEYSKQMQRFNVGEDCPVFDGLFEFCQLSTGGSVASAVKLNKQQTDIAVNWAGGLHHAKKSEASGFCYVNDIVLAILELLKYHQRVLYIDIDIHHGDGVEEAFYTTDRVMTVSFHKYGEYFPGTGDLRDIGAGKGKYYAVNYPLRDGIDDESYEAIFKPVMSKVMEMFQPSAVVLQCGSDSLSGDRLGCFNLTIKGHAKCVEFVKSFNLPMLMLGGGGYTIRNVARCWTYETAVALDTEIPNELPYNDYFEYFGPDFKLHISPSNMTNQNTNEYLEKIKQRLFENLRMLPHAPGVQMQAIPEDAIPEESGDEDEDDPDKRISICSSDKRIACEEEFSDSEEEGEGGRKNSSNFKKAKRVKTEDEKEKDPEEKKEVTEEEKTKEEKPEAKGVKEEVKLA

Compound	target or system	assay	test system	conditions	measurement	value
Cc1cc(Oc2ncccc2CN2CCN(c3cccc(Cl)c3Cl)CC2)ccc1-c1c(C)c(=O)[nH]c(=O)n1C	ADRA2C	ligand displacement, radioligand			pKi	7.65
COc1cccc(OC)c1-c1cc(C(=O)NC2(C(=O)O)C3CC4CC(C3)CC2C4)nn1-c1ccc(C(=O)N(C)CCCN(C)CCCN(C)C(=O)CN2CCN(CC(=O)[O-])CCN(CC(=O)[O-])CCN(CC(=O)[O-])CC2)cc1C(C)C.[177Lu+3] (centres unmarked)	HT-29 tumour model		host not given, lung	intravenous, 4 h, tumour-bearing	tracer uptake	3.8 %ID/g
Cc1ccc(N(O)N=Nc2ccc(S(=O)(=O)Nc3onc(C)c3C)cc2)cc1		ABTS scavenging		120 µg/mL	inhibition	70.1%
Cc1cc(Oc2ncccc2CN2CCN(c3cccc(C)c3C)CC2)ccc1-c1c(C)c(=O)[nH]c(=O)n1C	ADRA2B	ligand displacement, radioligand			pKi	7.23
CNc1ncc2c(/C=C/C(=O)N3CCC(OC)CC3)nn(Cc3cccc(C(F)(F)F)c3)c2n1	Serine/threonine-protein kinase MRCK alpha (CDC42BPA, Homo sapiens, UniProt Q5VT25)	enzyme activity, inhibitor, radiometric		1 µM	remaining activity	101%
O=C(NO)c1cncc(OS(=O)(=O)Oc2ccc(-n3ccnc3)cc2)c1	Histone deacetylase 1 (HDAC1, Homo sapiens, UniProt Q13547)	enzyme activity, inhibitor, fluorescence			pKi	6.67
Cc1cc(Oc2ncccc2CN2CCN(c3ccccn3)CC2)ccc1-c1c(C)c(=O)[nH]c(=O)n1C	ADRA2C	ligand displacement, radioligand			pKi	7.52
CCCCC(=O)Nc1ccc(-c2ccc3ncn(CCC)c(=O)c3c2)cn1	Epidermal growth factor receptor (EGFR, Homo sapiens, UniProt P00533, L858R/T790M)	binding, competition with immobilised ligand		0.5 µM	remaining binding	85%
CCNC(=O)c1c(C)[nH]c(C)c1S(=O)(=O)Nc1ccc(C(F)(F)F)c(Cl)c1	DRD3	G protein activation, antagonist, BRET			pIC50	4.82
COc1cc(-c2cncc3c2CN(C)Cc2cc(N4CCNCC4)ccc2-3)cc(OC)c1OC	Protein-tyrosine kinase 2-beta (PTK2B, Homo sapiens, UniProt Q14289)	enzyme activity, inhibitor		1 µM	remaining activity	100%
Cc1cc(Oc2ncccc2CN2CCN(c3cc(Cl)cc(Cl)c3)CC2)ccc1-c1c(C)c(=O)[nH]c(=O)n1C	ADRA2C	ligand displacement, radioligand			pKi	6.52
O=C(NO)c1cccc(OS(=O)(=O)Oc2ccc3c(c2)OCO3)c1	HDAC6	enzyme activity, inhibitor, fluorescence			pKi	7.35
Cc1[nH]c(C)c(S(=O)(=O)Nc2ccc(C(C)C)cc2)c1C(=O)N1CCCC1	DRD3	β-arrestin recruitment, antagonist			pIC50	4.85
Cc1cc(Oc2ncccc2CN2CCN(c3ccc(Cl)cc3)CC2)ccc1-c1c(C)c(=O)[nH]c(=O)n1C	ADRA2C	ligand displacement, radioligand			pKi	7.07
C1=C/COCc2cc(ccc2OCCN2CCCC2)Nc2nccc(n2)-c2cccc(c2)COC/1	Mast/stem cell growth factor receptor Kit (KIT, Homo sapiens, UniProt P10721, A829P)	binding		0.1 µM	remaining binding	35%
Cc1[nH]c(C)c(S(=O)(=O)Nc2cc(Cl)c(C(F)(F)F)c(Cl)c2)c1C(=O)N1CCC(F)(F)C1	DRD3	G protein activation, antagonist, BRET			pIC50	6.57

Compound	target or system	assay	test system	conditions	measurement	value
O=C(NO)c1cncc(OS(=O)(=O)Oc2ccc3ccccc3c2)c1	Histone deacetylase 5 (HDAC5, Homo sapiens, UniProt Q9UQL6)	enzyme activity, inhibitor, fluorescence			pKi	5.57
Cc1cc(Oc2ncccc2CN2CCN(c3ccc(O)cc3)CC2)ccc1-c1c(C)c(=O)[nH]c(=O)n1C	ADRA2B	ligand displacement, radioligand			pKi	6.12
O=C(NO)c1cccc(OS(=O)(=O)Oc2cccc(-c3ccccc3)c2)c1	Histone deacetylase 8 (HDAC8, Homo sapiens, UniProt Q9BY41)	enzyme activity, inhibitor, fluorescence			pKi	6.33
Cc1[nH]c(C)c(S(=O)(=O)Nc2ccc(Cl)c(Cl)c2Cl)c1C(=O)N1CCC(F)(F)C1	DRD3	β-arrestin recruitment, antagonist			pIC50	5.54
Cc1cc(Oc2ncccc2CN2CCN(c3ccc(F)cc3F)CC2)ccc1-c1c(C)c(=O)[nH]c(=O)n1C	ADRA2B	ligand displacement, radioligand			pKi	6.37
O=C(NO)c1cc(F)cc(OS(=O)(=O)Oc2ccc(-n3ccnc3)cc2)c1	HDAC6	enzyme activity, inhibitor, fluorescence			pKi	7.35
CC(=O)c1ccc(NS(=O)(=O)c2c(C)[nH]c(C)c2C(=O)N2CCC(F)(F)C2)cc1Cl	DRD3	G protein activation, antagonist, BRET			pIC50	4.62
CN(C)c1ncnc2c1ncn2[C@@H]1O[C@H](CO)[C@@H](O)[C@H]1O	Adenosine receptor A3 (ADORA3, Homo sapiens, UniProt P0DMS8, I253M)	G protein activation, agonist			pEC50	4.80
Cc1cc(OS(=O)(=O)Oc2ccc(-n3ccnc3)cc2)cc(C(=O)NO)c1	HDAC6	enzyme activity, inhibitor, fluorescence			pKi	5.68
C=CC(=O)N1CCC(COCC(=O)N2CCN(c3nc(-c4cnc(N)nc4C(F)F)nc(N4CCOC[C@@H]4C)n3)CC2)CC1	Cyclin-dependent kinase-like 1 (CDKL1, Homo sapiens, UniProt Q00532)	binding, competition with immobilised ligand		1 µM	remaining binding	82%
Cc1cc(OS(=O)(=O)Oc2ccccc2)cc(C(=O)NO)c1	HDAC6	enzyme activity, inhibitor, fluorescence			pKi	5.77
Cc1cc([C@@H](C)Nc2ccccc2C(=O)O)c2nc(N3CCC(F)(F)CC3)c(C#N)c(=O)n2c1	Ephrin type-A receptor 2 (EPHA2, Homo sapiens, UniProt P29317)	binding, competition with immobilised ligand		1 µM	remaining binding	100%
Cc1ccc(NS(=O)(=O)c2c(C)[nH]c(C)c2C(=O)N2CCCC2C)cc1Cl (centres unmarked)	DRD3	β-arrestin recruitment, antagonist			pIC50	4.40
O=c1nc(N2CCN(CC3CCCCC3)CC2)sc2c([N+](=O)[O-])cc(C(F)(F)F)cc12			CD-1 mouse, plasma	oral, 100 mg/kg, 24 h	concentration	2.65 ng/mL
Cc1[nH]c(C)c(S(=O)(=O)Nc2ccc(C(F)(F)F)c(Cl)c2)c1C(=O)N1CCC(O)C1 (centres unmarked)	DRD3	β-arrestin recruitment, antagonist			pIC50	4.83
Cc1cc(NS(=O)(=O)c2ccc(N=NN(O)c3ccccc3)cc2)no1		ABTS scavenging		120 µg/mL	inhibition	62.8%

A few entries again:
Compound	target or system	assay	test system	conditions	measurement	value
CN(C)c1ncnc2c1ncn2[C@@H]1O[C@H](CO)[C@@H](O)[C@H]1O	Adenosine receptor A3 (ADORA3, Homo sapiens, UniProt P0DMS8, I253M)	G protein activation, agonist			pEC50	4.80
Cc1cc(OS(=O)(=O)Oc2ccc(-n3ccnc3)cc2)cc(C(=O)NO)c1	HDAC6	enzyme activity, inhibitor, fluorescence			pKi	5.68
C=CC(=O)N1CCC(COCC(=O)N2CCN(c3nc(-c4cnc(N)nc4C(F)F)nc(N4CCOC[C@@H]4C)n3)CC2)CC1	Cyclin-dependent kinase-like 1 (CDKL1, Homo sapiens, UniProt Q00532)	binding, competition with immobilised ligand		1 µM	remaining binding	82%
